Assay results pooled from the literature.
Each numbered part is a random draw from the data of one study; scales do not carry over between parts. Substitutions count along the parent as printed.

Sample 1
Target: Ras GTPase-activating protein-binding protein 1, full length (G3BP1, Homo sapiens, UniProt Q13283)
Chain of UniProt Q13283 (whole entry, looked up): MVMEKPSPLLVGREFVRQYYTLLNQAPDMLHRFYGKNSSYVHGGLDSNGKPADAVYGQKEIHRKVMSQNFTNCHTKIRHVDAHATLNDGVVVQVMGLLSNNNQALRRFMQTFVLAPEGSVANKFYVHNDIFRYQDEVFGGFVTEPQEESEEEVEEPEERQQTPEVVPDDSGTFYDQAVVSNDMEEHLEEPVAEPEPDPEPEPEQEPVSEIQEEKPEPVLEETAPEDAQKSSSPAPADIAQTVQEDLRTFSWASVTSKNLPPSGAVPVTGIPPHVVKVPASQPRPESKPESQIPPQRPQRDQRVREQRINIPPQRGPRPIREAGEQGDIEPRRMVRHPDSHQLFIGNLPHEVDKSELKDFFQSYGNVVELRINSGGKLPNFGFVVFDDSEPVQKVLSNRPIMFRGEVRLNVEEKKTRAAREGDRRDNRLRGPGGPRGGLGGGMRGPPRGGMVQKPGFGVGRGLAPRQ
Method: RNA Bind-n-Seq
Form: RNA
Sample: in vitro
Concentration: 200 nM
Setting: whole 134-nt RNA, ends assumed
Together with: 150 mM LiCl
Reference: input library
Direction: higher = stronger binding
All molecules: 7-deaza-guanosine replaces G
Shared flanks, not repeated: GGGAGUUCUACAGUCCGACGAUC … UGGAAUUCUCGGGUGUCAAGG
Sequence	log2 enrichment
CACAGACAACACGCACCCACACAGACACAGAGGGAAGGGGUUGGGAUGGCGACAGGGUGCACAGCAGGGCGGGGUAGGACCCCAGCCCCU	0.261
UGCUUCUCUAUGGAAAGGACUUUCCCCCAAGCUGGACGAGGCAUUAAGAAGGAUAGAGGACUCCAGCAGGCUGACUCUACACUUCAUCAU	0.675
UGGCCCUGGUGGCAUGCGGGGAGGAAGAGGUGGCCUCAUGGAUCGUGGUGGUCCCGGUGGAAUGUUCAUAGGUGGCCGUGGUGGAGACAG	-0.204
GUCCUGUGCUACACAUCGUAUGUACCGAAUCGGGUUUUUGGGUUUUUUUGGGUUUGGGAAAGUAUUAUGUUACGCCGUUCGGAUCUGCAC	0.435
UGGCCCUGGUGGCAUGCGGGGAGGAAGAGGUGGCCUCAUGGAUCGUGGUGGUCCCGGUGGAAUGUUCAGAGGUGGCCGUGGUGGAGACAU	0.568
CCUGUGCUACACAUCGUAUGUACCGAAUCGGUUUUUUUGGGGUUUUUUUGGUUUUUUUGGGAAAGUAUUAUGUUACGCCGUUCGGAUCUG	0.79

Sample 2
Target: ABI1, truncated, D143A, DHFR fusion (Arabidopsis thaliana)
Method: DHFR PCA, deep sequencing
Sample: yeast
Setting: methotrexate growth selection, single substitutions
Together with: (+)-ABA 1.4 µM
Reference: wild-type fitted maximum
Direction: higher = stronger binding
Starting sequence: PYL1, truncated, DHFR fusion (Arabidopsis thaliana); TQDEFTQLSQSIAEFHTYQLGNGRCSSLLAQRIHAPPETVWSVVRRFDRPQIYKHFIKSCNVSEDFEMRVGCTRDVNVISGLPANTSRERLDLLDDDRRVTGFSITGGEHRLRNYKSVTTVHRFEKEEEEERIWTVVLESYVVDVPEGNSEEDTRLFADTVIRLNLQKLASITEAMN
Variant	relative binding score [%]
D159V	-4.78
T86A	22.9
R88P	-6.99
F124S	24.7
A175R	58.3
C72G	10.6
D153K	-7.46
S11P	65.4
N85F	61.4
V44C	-7.44
Y18D	-7.35
I57C	-0.164
W41F	-10.6
H110D	24.2
L166Q	0.606

Sample 3
Target: RNA binding protein fox-1 homolog 2, RRM domain, GST-SBP tag (RBFOX2, Homo sapiens, UniProt O43251-10, residues 100-194)
Method: RNA Bind-n-Seq
Form: RNA
Sample: in vitro
Concentration: 365 nM
Setting: natural RNA segment, single round, ends assumed
Reference: no-protein control
Direction: higher = stronger binding
Shared flanks, not repeated: GGGAGUUCUACAGUCCGACGAUC … UGGAAUUCUCGGGUGCCAA
Residues (chain): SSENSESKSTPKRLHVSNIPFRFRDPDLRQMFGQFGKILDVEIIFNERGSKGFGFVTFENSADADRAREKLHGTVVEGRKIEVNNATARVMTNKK
Sequence	RBNS enrichment (R)
GAUGACCUCAGAAUGAACUGGAUUGUGGUGUUCACAAGAAAAUCUUAGUUUGUGAUGAUUACAUUGCUUUUUGUUGUCCAGUAGUUUAGUUUGUGUACAUAUAUACACAU	0.384
GUAGUCUUAAUAGUUUUGAAUGUUGACUGAAUGUCUAUAAAAUUGUGAGUUUGUCUUUGUUACAUUCCAGUGUUUCUGCCUCUUGGCAUGCUUAAAGCACGGCUUACUUC	6.39
AGGCCUGGGACAGAGUCAAGGCUCAGAGAAUAAAGGUAGCUAAUCUCAUCAUAAUAUUUUUAUUAGAAUGUUCUGAUGAUAAAAAUAAAACUUGUUUUCUUUAAAGAAAA	0.709
UCUAAUUUUAUAUAUAGAGAAAGUGACCUAUUUUUUAAAAAAAUCACACUCUAAGUUCUAUUGAACCUAGGACUUGAGCCUCCAUUUCUGGCUUCUAGUCUGGUGUUCUG	0.333
AAUAAAUGAAGAAAUACAUUUUAAGUAGAUAUCAGUUACUUUUAAUUUGUAUGGUAAAUAUAUACAUAGGUCCAUUUCAGAAAAAAAAUCAUGAUUGUAAAGGGAAUAUA	0.497
UGGAUAGUCAGGAAAAGAUUUAAUGUUUAAUAUUUAAACAAAAUAUUUAAUGUCUAUACAGUAAAAUUAUUCAAACUUCAAACCAGUAUUGAAAGCAGUUGGAAACCAGC	0.365
GCUUGACUGGUUUGAGUUCCCGAGGCCAAGGGGAAGCUUUAGCUUUGCUCUGCUUUUGAACCAGUGUUGGGGGAUUCCCUGUCGUGCUGGGUUGGGACUGUGGAGGCGGC	0.181
CCCAAAAGGUUACUCUCAUAACAUAAGCUAGCCCCUUCCGGAAGUCAUGGUGGUGGGUUUCUAUCAUCCUGUCUCUGUUUAAAAGGGACUGAAUAGUUGGGUUUUAAAAG	0.253

Sample 4
Target: Interferon regulatory factor 7, full length, phosphomimetic (IRF7, Homo sapiens, UniProt Q92985, residues 1-503, S471D/S472D/S475D/S476D/S477D/S483D/S484D/S487D)
Chain of UniProt Q92985 (whole entry, unmodified, looked up): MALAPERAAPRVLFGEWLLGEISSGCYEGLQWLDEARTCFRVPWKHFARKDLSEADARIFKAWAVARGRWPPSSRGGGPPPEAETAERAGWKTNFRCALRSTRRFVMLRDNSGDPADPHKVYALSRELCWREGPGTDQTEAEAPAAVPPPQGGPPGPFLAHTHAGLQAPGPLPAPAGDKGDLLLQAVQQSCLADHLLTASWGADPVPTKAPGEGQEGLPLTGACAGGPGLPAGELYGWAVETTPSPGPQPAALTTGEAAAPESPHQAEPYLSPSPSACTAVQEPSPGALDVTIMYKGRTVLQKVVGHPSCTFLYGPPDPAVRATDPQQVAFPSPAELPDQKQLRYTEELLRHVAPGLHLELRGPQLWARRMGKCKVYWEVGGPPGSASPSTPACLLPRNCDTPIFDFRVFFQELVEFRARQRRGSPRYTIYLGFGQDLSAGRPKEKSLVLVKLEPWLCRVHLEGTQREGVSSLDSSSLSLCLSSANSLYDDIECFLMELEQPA
Method: protein-binding microarray
Form: double-stranded DNA, one strand shown
Sample: in vitro
Concentration: 2200 nM top
Setting: 60-bp whole probe
Together with: salmon DNA 0.4 mg/ml
Reference: random background probes
Direction: higher = stronger binding
Shared flanks, not repeated: GCCTAGCAC … GTCTTGATTCGCTTGACGCTGCTG
Sequence	fitted relative affinity [z-score]
TAGTATATACACTTATGACTGTGCTAG	0.468
TCATGTTTCTGTGTCACACTGTGCTAG	2.48
GCCGATTTCAGTATCGAGACGTGCTAG	1.75
CTAGATCTCAGTTTCGATTAGTGCTAG	5.79
GACTGTCTCGGACTGGGGACGTGCTAG	-0.257
AACGATTTCAGTCTCGAGACGTGCTAG	0.906
TCCCCTCTAGGTTCTCTGAAAGTGCTA	0.622
TCAGTGCTCCTTTTAATACTGTGCTAG	0.607
GACGGTTTCGGACTGGGCACGTGCTAG	3.52
CTAGAACTGGGGTATCGATTAGTGCTA	0.0646
GACTGTCTCGGTCTCGGGACGTGCTAG	0.251
TTAGGTATCCTTCTCCCTTAGTGCTAG	1.21
TATTTTCTGAATGTCTTCCCGTGCTAG	4.35
TTAGATATCAGTTTGGATTAGTGCTAG	0.24
GGCGAACTGGGGTATCGAGACGTGCTA	-0.772
TAAGGTTCCGGTTTCGGTTAGTGCTAG	8.68
GACGATTTCAGTCTCGAGAGGTGCTAG	0.464
TTAGGTATCGACTTTCGGTTAGTGCTA	6.03
ATGTGTTTACAGATGTTTTTGTGCTAG	1.05

For quick reference, copied from above (sample 4):
Sequence	fitted relative affinity [z-score]
GCCGATTTCAGTATCGAGACGTGCTAG	1.75
TCAGTGCTCCTTTTAATACTGTGCTAG	0.607
GACGGTTTCGGACTGGGCACGTGCTAG	3.52
